Assay results gathered from unrelated publications.
Numbered parts are unrelated; each lists some results of a single study.

Block 1
Target: RNA binding protein fox-1 homolog 2, RRM domain, GST-SBP tag (RBFOX2, Homo sapiens, UniProt O43251-10, residues 100-194)
Technique: RNA Bind-n-Seq
Form: RNA
Matrix: in vitro
Concentration: 365 nM
Notes: natural RNA segment, single round, ends assumed
Reference: no-protein control
Reading: higher = stronger binding
Shared flanks, not repeated: GGGAGUUCUACAGUCCGACGAUC … UGGAAUUCUCGGGUGCCAA
Construct (chain): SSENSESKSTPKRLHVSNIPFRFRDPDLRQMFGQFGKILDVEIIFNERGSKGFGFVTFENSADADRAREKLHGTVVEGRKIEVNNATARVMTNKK
| Oligonucleotide | RBNS enrichment (R) |
| --- | --- |
| GUUUUAAGUUUAGAUUUCACCGUGUCUUAGUGCUUCAUUCUAUUGGUUUAUUGGAACAUGUAAUAAAUAGGAGUAGUGAUGUAUUAAAACACAAGUAUUCAUUAAUGUUU | 1.18 |
| UUCCCUCCCCCUGCCUCUUCUGGGUUGGUCACCCCAUAGGACAGCCACAGGACAGUCACUAGCACCUACUGGAAACCUCUUUGUGGGAACAUGAAGAAAGAGCCUUUGGG | 0.372 |
| UGAUGAAGUACAAGACAAAUACCCUGGGAAAAAAAAUGAAAGUAUGAGAAAUUGGCAUUUCUACAGCUGAAAUUCAAUGUAUCUGUUAGAGAUGUCUGGAAGGGUUACUU | 0.994 |
| ACCACCACCUACAAAUGAGGGGACUCAUCUAGAAGACCUCUAAGGUCCCCUUUUGGCUCUGAGGGGUCUCUAAUAAUCCCCACUUGGAAUUCAGCACCGCAAGGAAAUUA | 0.378 |
| UCAAGACUACAGAAAGGUUUGAAGUAGUGUGUGCAUGGCAUGCACGUAUGUAAGUAAUCUGGGGAAGAAGCAAAGAUCUGUUUCAUUCUUAGCCUCAGGCCUCAUGAGGG | 0.81 |
| UAUCCAGUGCAAUCAACUGUCAUUUCUUUUUCCUUAAAACAUAUGAGUAUAUAGAAAGAAAAGUUACAGUACUCUGUGGGAAAAUCUCAGCUGACAUCAUGAAUAGAAUG | 0.471 |
| UUGAGCAGAAUGACUUGACUGAGUGGUUCUUUGUUGGCCUCAGUUGCUUUAUGUGGGCAUGAGAUGUCCCGUGAGGUCAUAGCUCCUUCUUUAGGAACUGCCUGUCCAUG | 0.709 |
| UUUCACCAUGGCAAACCUAAAUGCAGUCAGUCACAAACCAGCCUGGGGCCUUCCUGGCUUUGGGAGUAAGAAAUGGGCCUCAGCCCCGCGGAUCAACCAGGCAGAGUUCU | 0.358 |
| UUCACAGGCCAUUUCUGUGAACCCUACUCCAUUGUGGUUUCUGCCACUAUCAAAGUUCCAGCUACCUGCAAGGUGAAGGAAGGCAUCCCUUUUGGGGCAUGCACUUUCUU | 0.17 |
| CCCCUCCACAGUCACUAGAGGGCUCUCUAAUGCUUUCUAAAGGAGCCACCACCUGCUCCGUGGCCACUCCUGUCACCCUGUCUAAUUGCACCAUUCAAGAAGAGCACAGG | 0.792 |
| GGGCCAGAGUAAGUGCAAGUCAUGGAGUGCAGGCAGAGGGGUCCAUGGCUUCCCCAGCCCAGGGAGGGUAUCAGUAUCAUUCAUUCUCUCUCCCCUCACUGGUAUGGGUU | 0.529 |
| GGAAGGUGUGUGAGCAGUGCCAUGACUCUGCCCCUUACCUAAUCCCACAUCUCUCUAAUGAUAAGACAUUGGCUCGCCUCUGACCAGAGCCCCAGCACCAGAGAGCGGAA | 0.948 |

Block 2
Target: Sal-like protein 4, full length isoform A (SALL4, Homo sapiens, UniProt Q9UJQ4, residues 1-1053)
Chain of UniProt Q9UJQ4 (whole entry, looked up): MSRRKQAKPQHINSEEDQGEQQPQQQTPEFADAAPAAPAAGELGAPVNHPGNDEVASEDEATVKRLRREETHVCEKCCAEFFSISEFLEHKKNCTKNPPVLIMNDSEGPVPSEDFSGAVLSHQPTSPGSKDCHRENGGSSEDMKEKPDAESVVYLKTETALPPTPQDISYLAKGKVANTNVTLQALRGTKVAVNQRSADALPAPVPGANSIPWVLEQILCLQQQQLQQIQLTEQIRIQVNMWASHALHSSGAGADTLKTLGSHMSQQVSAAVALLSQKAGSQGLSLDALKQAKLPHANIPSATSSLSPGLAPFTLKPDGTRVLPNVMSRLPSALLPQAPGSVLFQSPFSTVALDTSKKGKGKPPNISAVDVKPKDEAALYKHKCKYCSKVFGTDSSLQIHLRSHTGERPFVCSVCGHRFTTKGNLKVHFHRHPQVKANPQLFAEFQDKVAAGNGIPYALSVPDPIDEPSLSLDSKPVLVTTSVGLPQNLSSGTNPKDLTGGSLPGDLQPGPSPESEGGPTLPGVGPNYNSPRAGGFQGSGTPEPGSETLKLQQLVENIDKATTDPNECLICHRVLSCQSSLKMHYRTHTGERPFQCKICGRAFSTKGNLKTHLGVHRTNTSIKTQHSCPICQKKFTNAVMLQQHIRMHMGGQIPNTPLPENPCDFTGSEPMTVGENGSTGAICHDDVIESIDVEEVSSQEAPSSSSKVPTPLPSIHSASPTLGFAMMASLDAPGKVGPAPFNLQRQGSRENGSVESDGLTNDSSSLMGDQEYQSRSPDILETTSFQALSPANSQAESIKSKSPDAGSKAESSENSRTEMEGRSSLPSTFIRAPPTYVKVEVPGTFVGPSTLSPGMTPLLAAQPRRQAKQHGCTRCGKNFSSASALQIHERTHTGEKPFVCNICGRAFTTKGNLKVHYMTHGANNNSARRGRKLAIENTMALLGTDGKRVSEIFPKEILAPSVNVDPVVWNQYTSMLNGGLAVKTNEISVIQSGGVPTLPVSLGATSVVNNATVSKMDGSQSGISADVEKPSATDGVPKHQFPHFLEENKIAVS
Technique: universal PBM
Form: double-stranded DNA, one strand shown
Matrix: in vitro
Concentration: 600 nM
Notes: 8-mer, flanks averaged, mean of replicates
Reading: higher = stronger binding
| Oligonucleotide | E-score |
| --- | --- |
| GCCAGCAA | -0.213 |
| GGCATCCC | -0.372 |
| CACGAATA | 0.223 |
| CGAAAGAC | -0.0389 |
| CATTCTCG | 0.0246 |
| CTTGACAC | -0.0952 |
| TACATTAA | 0.296 |
| ATCAGGCA | -0.0985 |
| CTACCAAC | 0.105 |
| CAAGAACG | -0.00293 |
| CAAAAGTC | 0.00133 |
| CGACACTC | -0.111 |
| GGACTGAC | -0.22 |
| AAAGCGAA | 0.0807 |
| ACGTTTTA | 0.262 |
| CACCGAGC | -0.196 |
| AGATACCA | 0.154 |
| AATGTATC | 0.245 |
| TGAGCGAA | -0.00683 |
| CGGAGACA | -0.127 |
| CTTTCTCC | -0.182 |
| GTTTCGAA | 0.0478 |
| AAAGGGTA | 0.0907 |
| AAAGTGCT | 0.143 |
| GCGGGAAC | -0.353 |

Block 3
Target: Fragile X messenger ribonucleoprotein 1, C-terminal low-complexity region (Fmr1, Mus musculus, UniProt P35922)
Technique: RNA Bind-n-Seq
Form: RNA
Matrix: in vitro
Concentration: 200 nM
Notes: whole 134-nt RNA, ends assumed
With: 150 mM KCl
Reference: input library
Reading: higher = stronger binding
Shared flanks, not repeated: GGGAGUUCUACAGUCCGACGAUC … UGGAAUUCUCGGGUGUCAAGG
| Oligonucleotide | log2 enrichment |
| --- | --- |
| UCAAGGGUUAUACACGGAAAGCCGCUGCGCUGGAAGCGAUGAAGGACUACACCAAAGCCAUGGAUGUGUACCAGAAGGCGCUAGACCUGG | -0.441 |
| CUCAAGUCCUGUGCUACACAUCGUAUGUACCGAAUCGGAAAGGUUUUUGGAGGAAAGUAUUAUGUUACGCCGUUCGGAUCUGCACUUCCA | -0.22 |
| GUCCUGUGCUACACAUCGUAUGUACCGAAUCGGGGCCCCGGGGCCCCGGGGCCCCGGGAAAGUAUUAUGUUACGCCGUUCGGAUCUGCAC | -0.559 |
| AAGUCCUGUGCUACACAUCGUAUGUACCGAAUCGGGGAAAAAGGGGAGGGGUGGGGAAAGUAUUAUGUUACGCCGUUCGGAUCUGCACUU | 0.78 |
| CUGUGCUACACAUCGUAUGUACCGAAUCGGGGAAAAAAAGGGGAAAAAAAGGAAAAAAAGGAAAGUAUUAUGUUACGCCGUUCGGAUCUG | -0.633 |
| GCAGGAAGUAAAAACAAAUGGAAAUGCAUCGGAUAGUGGCAGGGGUGGGGGUUGCUAAGGAAAGGGUGGGAUGGGAGUGGGUAAAGAGUU | 0.355 |
| UUGACUAUAUUGUGGAGUAUGACUAUGAUGCUGUACAUGAUGAUGAAUUAACUAUUCGAGUUGGAGAAAUCAUCAGGAAUGUGAAAAAGC | -1.45 |
| AAGUCCUGUGCUACACAUCGUAUGUACCGAAUCGGAAAAGGGGAAAAGGAAAAGGGGAAAGUAUUAUGUUACGCCGUUCGGAUCUGCACU | -0.118 |
| UCCUGUGCUACACAUCGUAUGUACCGAAUCGGGCCCCCCGGGCCCCCCGGGCCCCCCGGAAAGUAUUAUGUUACGCCGUUCGGAUCUGCA | -0.257 |
| AAGUCCUGUGCUACACAUCGUAUGUACCGAAUCGGUUUUUGGAAAAAAAGGUUUGGAAAGUAUUAUGUUACGCCGUUCGGAUCUGCACUU | -1.32 |
| CAAGUCCUGUGCUACACAUCGUAUGUACCGAAUCGGAAAAGGGGAAAAGGAAAAGGAAAGUAUUAUGUUACGCCGUUCGGAUCUGCACUU | -0.617 |
| UCCUGUGCUACACAUCGUAUGUACCGAAUCGGCCCCCCCGGCCCCCCCGGCCCCCCCGGAAAGUAUUAUGUUACGCCGUUCGGAUCUGCA | 0.362 |
| CACAGACAACACGCACCCACACAGACACAGAGGGAAGGGGUUGGGAUGGGGACAGGGUGCACAGCAGGAAAGGGUAGGACCCCAGCCCCU | 1.09 |
| CCUCAAGUCCUGUGCUACACAUCGUAUGUACCGAAUCGGGGAGGAGGAGGGGAAAGUAUUAUGUUACGCCGUUCGGAUCUGCACUUCCAG | 0.513 |

Block 4
Target: Prothrombin, mature alpha-thrombin (F2, Homo sapiens, UniProt P00734)
Technique: aptamer microarray, sandwich
Form: DNA with 2'F-ANA
Matrix: in vitro
Concentration: 200 nM
Notes: whole 15-mer aptamer, many near background
With: Cy3 exosite-II aptamer, 400 nM
Reading: higher = stronger binding
Oligonucleotide: GGTTGGTGTGGTTGG
| Modification | mean fluorescence intensity [a.u.] |
| --- | --- |
| 2'F-ANA at 2 3 6 8 10 | 312 |
| 2'F-ANA at 2 6 7 8 11 12 13 15 | 498 |
| 2'F-ANA at 2 5 6 8 9 10 13 14 | 44 |
| 2'F-ANA at 1 2 4 8 9 10 11 12 14 15 | 52.8 |
| 2'F-ANA at 2 9 12 14 15 | 173 |
| 2'F-ANA at 3 7 8 9 10 11 12 14 | 465 |
| 2'F-ANA at 1 2 3 5 6 7 13 | 54.9 |
| 2'F-ANA at 1 4 6 7 10 13 14 | 44.8 |
| 2'F-ANA at 1 2 3 4 5 9 10 12 14 15 | 47 |
| 2'F-ANA at 2 3 4 7 8 9 10 14 15 | 174 |
| 2'F-ANA at 2 5 6 7 8 9 11 12 13 14 | 63.6 |
| 2'F-ANA at 1 2 3 5 8 10 12 13 14 | 47.7 |
| 2'F-ANA at 1 2 6 7 9 10 13 14 15 | 48.5 |
| 2'F-ANA at 2 3 4 5 7 10 11 13 14 | 46.9 |
| 2'F-ANA at 2 3 4 5 6 7 8 9 11 12 13 15 | 91.1 |
| 2'F-ANA at 1 3 4 6 7 15 | 223 |
| 2'F-ANA at 1 2 3 4 6 7 8 13 14 15 | 68.2 |
| 2'F-ANA at 1 3 5 9 12 13 14 15 | 46.3 |
| 2'F-ANA at 4 10 11 13 14 | 60.3 |
| 2'F-ANA at 5 8 10 11 12 13 14 | 57.4 |
| 2'F-ANA at 1 2 4 5 8 9 10 13 | 45.3 |
| 2'F-ANA at 1 3 4 5 8 9 13 | 48.3 |
| 2'F-ANA at 1 10 12 13 15 | 75.8 |
| 2'F-ANA at 2 7 8 9 11 12 13 | 572 |
| 2'F-ANA at 3 5 6 7 9 14 | 51.9 |

Excerpt of the above (block 2):
| Oligonucleotide | E-score |
| --- | --- |
| ATCAGGCA | -0.0985 |
| CATTCTCG | 0.0246 |
| GTTTCGAA | 0.0478 |
| CACGAATA | 0.223 |
| CAAAAGTC | 0.00133 |
| GCGGGAAC | -0.353 |
| GGCATCCC | -0.372 |
| TACATTAA | 0.296 |
| AATGTATC | 0.245 |
| CAAGAACG | -0.00293 |
